Results pooled from the literature.
Each line is one published result; not all experiments were run side by side.
Target: Discoidin domain-containing receptor 2 (DDR2, Homo sapiens, UniProt Q16832)
Sequence (Q16832 22-855, as in one of the studies): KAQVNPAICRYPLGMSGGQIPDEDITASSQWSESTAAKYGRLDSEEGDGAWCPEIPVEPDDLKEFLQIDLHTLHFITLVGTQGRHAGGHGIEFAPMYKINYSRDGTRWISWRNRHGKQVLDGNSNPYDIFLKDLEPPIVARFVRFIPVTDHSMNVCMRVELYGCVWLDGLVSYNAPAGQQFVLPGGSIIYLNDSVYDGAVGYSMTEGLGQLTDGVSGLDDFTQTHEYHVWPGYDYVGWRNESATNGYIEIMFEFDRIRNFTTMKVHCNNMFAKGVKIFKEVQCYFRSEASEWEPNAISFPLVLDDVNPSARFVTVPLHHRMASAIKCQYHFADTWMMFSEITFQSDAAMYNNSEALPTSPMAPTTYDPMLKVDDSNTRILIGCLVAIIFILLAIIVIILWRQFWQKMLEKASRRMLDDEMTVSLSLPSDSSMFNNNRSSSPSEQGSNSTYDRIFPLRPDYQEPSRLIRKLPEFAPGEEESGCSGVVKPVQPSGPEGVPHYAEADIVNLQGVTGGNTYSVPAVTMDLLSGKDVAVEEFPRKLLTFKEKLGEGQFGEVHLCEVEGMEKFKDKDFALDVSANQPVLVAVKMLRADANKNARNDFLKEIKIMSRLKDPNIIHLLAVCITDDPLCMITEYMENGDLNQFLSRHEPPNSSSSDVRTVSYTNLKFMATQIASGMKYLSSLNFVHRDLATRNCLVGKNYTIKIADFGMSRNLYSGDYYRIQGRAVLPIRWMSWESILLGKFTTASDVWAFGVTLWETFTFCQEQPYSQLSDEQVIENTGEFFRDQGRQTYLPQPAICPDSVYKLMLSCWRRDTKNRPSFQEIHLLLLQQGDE

The remaining binding of `Cc1cnc2nc1Nc1cccc(c1)COC/C=C/COCc1cc(ccc1OCCN1CCOCC1)N2` is reported as 95% (binding; 0.1 µM).
`CC(C)=CC1OC(C)(C)C2C=C3C(=O)C(Cl)=CC(O)C3C3C(O)C4OC4C(=O)C132` (centres unmarked) gave a remaining binding of 88% (cell-free assay, competition with immobilised ligand; 10 µM).
For `CNC(=O)Nc1ccc(Cc2ccc(NC(=O)c3nc(N)sc3-c3ccccc3)cc2)cc1`, the selectivity ratio was 0.91 (competition binding; relative to: DDR2 over DDR1).
For `COc1cc(Nc2nccc(-c3cnn4nc(OC)ccc34)n2)cc(C(F)(F)F)c1`, the remaining binding was 96% (binding, competition with immobilised ligand; 1 µM).
`CN1CC[C@@H](COc2cnc(C#N)cc2-c2ccn3nc(NC(=O)C4CC4)cc3c2)C1` gave an inhibition of -3% (enzyme activity, inhibitor; 1 µM).
`NC(=O)[C@@H](O)C[C@H]1CCc2sc3ncnc(O[C@H]4CC[C@H](N5CCOCC5)CC4)c3c21` has an inhibition of 1% (enzyme activity, inhibitor; 10 µM).
The selectivity ratio of `CNC(=O)C(Cc1c[nH]c2ncccc12)NC(=O)C(OC)c1ccc(Oc2ccccc2)cc1` (centres unmarked) is reported as 21 (competition binding; relative to: DDR2 over DDR1).
`CNC(=O)C[C@H](Cc1ccc(C#N)cc1)NC(=O)c1cc(-c2ccc(CN[C@H](C)c3ccc(C)cc3)o2)ccc1Cl`: “activity vs control” 117% (enzyme activity, inhibitor; 1 µM).
`CCn1cc(C(=O)O)c(=O)c2c(N)c(F)c(NC3CCCCC3)cc21` gave an inhibition of -13.1% (kinase activity; 0.1 µM, with: ATP at Km).
With `CNC(=O)c1ccc(-c2cccc(NC(=O)Cc3cc(C(=O)c4ccc([S+](C)[O-])cc4)c4occc4c3)c2)cc1` (centres unmarked) the selectivity ratio was 20 (competition binding; relative to: DDR2 over DDR1).
With `COc1ccc(NC(=O)Nc2ccc3c(c2)C(=O)N(C(C)CO)CC(C)C(CN(C)Cc2ccc4c(c2)OCO4)O3)cc1` (centres unmarked) the remaining activity was 97% (kinase activity, KinaseProfiler; 0.03 µM, species human; relative to: control).
`O=C(Cc1ccc(OCc2ccccc2)cc1)NC1(C(=O)O)CCN(C(=O)c2ccc(-c3cccc(Cl)c3)cc2)CC1` — result for “activity vs control”: 102% (enzyme activity, inhibitor; 10 µM).
`Cc1ccc(-c2c(/C=C(\C#N)C(=O)NC(C)C)n(CCCO)c3ncnc(N)c23)cc1` has a remaining binding of 100% (cell-free assay, competition with immobilised ligand; 1 µM).
`Cc1cccc(O[C@H]2CCC[C@@H](C(C)CNCc3ccncc3)C2)c1` (relative stereo) gave an inhibition of 0% (cell-free assay; 1 µM).

Some of these lines once more:
`CC(C)=CC1OC(C)(C)C2C=C3C(=O)C(Cl)=CC(O)C3C3C(O)C4OC4C(=O)C132` (centres unmarked) gave a remaining binding of 88% (cell-free assay, competition with immobilised ligand; 10 µM).
